Measured values gathered from unrelated publications.
Every numbered part comes from another study and shows a few of its results, in no order.

Sample 1 — technique: RNA Bind-n-Seq; molecule type: RNA; matrix: in vitro; concentration: 20 nM; setting: 6-mer, flanks averaged, single round; together with: 150 mM KCl; baseline: input library; direction: higher = stronger binding; quantity: 6-mer enrichment (R)
Target: TAR DNA-binding protein 43, full length, His tag (TARDBP, Homo sapiens, UniProt Q13148, residues 1-414)
CACCGU: 0.662
UAACUG: 0.655
CGAACG: 0.896
CCCAGG: 1
CAGUGG: 1.69
ACAUCA: 0.609
UGUGGC: 1.42
AUCUGA: 0.583
GCGAUG: 1.41
CUUUAC: 0.572
GAGCAG: 1.57
CUAGCG: 0.955
GCAUGU: 1.02
UGGUUA: 0.743
GGGAGC: 3.69
AGCUAA: 0.634
UUGUAC: 0.611
CAUAGC: 0.654
CACCUC: 0.618
GCUAUA: 0.653
CUUUUG: 0.673
UGCUGU: 0.796

Sample 2 — technique: RNA Bind-n-Seq; molecule type: RNA; matrix: in vitro; concentration: 365 nM; baseline: no-protein control; direction: higher = stronger binding; quantity: RBNS enrichment (R)
Target: RNA binding protein fox-1 homolog 2, RRM domain, GST-SBP tag (RBFOX2, Homo sapiens, UniProt O43251-10, residues 100-194)
Setting: natural RNA segment, single round, ends assumed
Construct (chain): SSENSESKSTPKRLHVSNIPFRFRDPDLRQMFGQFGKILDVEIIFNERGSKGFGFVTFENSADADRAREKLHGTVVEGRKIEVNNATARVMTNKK
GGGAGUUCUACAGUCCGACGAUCAUGUCGACUUGAUUUCCUUUUAGUAGCAUCUCUCUCUUCCAUGUCUUGAUGUUAUGCAGGAAGUACAAAAGUACUUUAAAAUUUUGUUAUGAAAUAAAAAAAAAAAGGAUUGGAAUUCUCGGGUGCCAA: 1.07
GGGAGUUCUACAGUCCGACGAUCUUUGAGACGAGGGUGAGGGAAUGUGGUGGCCACAAAAGAACAGGGACUUGCAGCACAAAUGUCACUUCUGUCUCCCUUUUCAGUGGUAGCACGGAGGAGGAGGUGCUGCGUGGAAUUCUCGGGUGCCAA: 5.91
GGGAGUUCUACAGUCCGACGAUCAAUAUGGAUCAAAAAGAGUCUUGGAUACUCAGCCCCAUAUUUUGUGCUGAACUGACAUGAACAACCGAGAAUGUCCUUCUUGGUUGUCAAAAGACAGUUUUCCAUCCUACUGGAAUUCUCGGGUGCCAA: 0.243
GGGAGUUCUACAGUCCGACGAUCAAAAUCUUAUUCCAGUUUGCAAUUAAGCCCCAUUUCCAUUUCCACACAGCAACUGAUCGGCUUUCUGUCCUUCAGGUUUGCCAUUUCUGAACAUUUCCUAUAAAUGGAAUUGGAAUUCUCGGGUGCCAA: 1.08
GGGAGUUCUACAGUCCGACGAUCAAAAGAGUGCCUAAGCGGGGGUGAAAGAGGACGUGUUACCCACUGCCAUGCACCAGGACUGGCUGUGUAACCUUGGGUGGCCCCUGCUGUCUCUCUGGGCUGCAGAGUCUUGGAAUUCUCGGGUGCCAA: 0.572
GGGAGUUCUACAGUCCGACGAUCGCCCGGAGAGACCUAACCUGUAUGUCCACUUUCAUGCUCUUGUUCCCCAAACCCCUGGGCAUUGUUGUCUGCUCAAGAGAUUCUACUGGAAGCAUGAUGACCCACCUGUCUGGAAUUCUCGGGUGCCAA: 1.64
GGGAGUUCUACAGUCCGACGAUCCUCCUAAUGUAUUUGUUGGUUUCAUUUCAUUUUCAUUUUGCACUUGCACUAAAUUGAACAUGACCCUGUUAGAGAUGUUAUAAAGGGAAUGAAAUCCUGGAACUCAGAGUUGGAAUUCUCGGGUGCCAA: 16.8
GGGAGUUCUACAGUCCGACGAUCUUUUUUCUCCUGCUCUGAGUCAGGUGGGCGUCCCCUCUAGAUCCAGGUCUGGGCAGGGGUCUGAUGGUCCACUGUGGGCUGUUUCCCUAUCCACCCCCCUCCUUGCUGGCUGGAAUUCUCGGGUGCCAA: 0.443

Sample 3 — technique: EMSA with sequencing; molecule type: double-stranded DNA, one strand shown; matrix: in vitro; concentration: 10 and 20 nM; baseline: negative control set to 0; direction: higher = stronger binding; quantity: normalised bound fraction
Target: Hepatocyte nuclear factor 3-alpha (Foxa1, Mus musculus, UniProt P35582, residues 1-468, full length assumed)
UniProt P35582, sequence (whole entry, looked up): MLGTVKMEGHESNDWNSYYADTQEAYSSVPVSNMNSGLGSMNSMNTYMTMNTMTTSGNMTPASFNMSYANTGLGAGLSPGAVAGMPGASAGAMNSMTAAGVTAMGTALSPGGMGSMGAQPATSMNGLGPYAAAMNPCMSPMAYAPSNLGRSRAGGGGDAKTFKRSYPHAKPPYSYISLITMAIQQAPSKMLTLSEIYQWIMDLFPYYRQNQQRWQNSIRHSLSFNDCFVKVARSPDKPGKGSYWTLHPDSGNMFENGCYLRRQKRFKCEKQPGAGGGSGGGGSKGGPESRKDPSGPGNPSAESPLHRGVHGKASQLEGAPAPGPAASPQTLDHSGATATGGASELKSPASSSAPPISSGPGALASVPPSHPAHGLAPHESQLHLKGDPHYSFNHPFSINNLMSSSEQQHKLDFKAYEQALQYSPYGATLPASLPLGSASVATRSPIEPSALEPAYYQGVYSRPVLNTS
Setting: whole designed probe, mean of two concentrations, ends assumed
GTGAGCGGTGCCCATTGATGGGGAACTCTCCTGGCAACTGTGCAGCTCCACTCTGCACCCTTGGTTTATCCTTCCTGTTTCCTCACTTATCAAATATTTATTGTCAACAACGGGCAGTTCTGTTTGCACACAGTGTGATGGGGTAATGAGATAGTTAGGTTTCCTCCTGTTATTGATGGGGAGTGCTGATGGCATGAATAATTTCCTCTTTTTATAAATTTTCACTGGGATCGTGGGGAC: 0.286 ratio
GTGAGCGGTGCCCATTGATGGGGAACACACAGAAACCCTTTGGTAACATGAGCTGTGTTTCCTTGTTAAATTGACCCTGCTGTCTGACACCCTCTGTTGCTACTGTTACATCACAGCTAGGTCAACATCCAGATTCCTTTACCAACTATGTGAGAATCTACTAAAAGCATTCTCTAATAATACAGTCAGCCCTGGGAAAGACATCTGAGCTTTAATTAATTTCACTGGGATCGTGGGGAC: 0.0364 ratio
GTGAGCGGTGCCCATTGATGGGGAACATCTTCCCCCTCTTCCTTGCCCCACCAGCTCACCTTCCCGGGTATCTGCAAATAAGGAAATTAATATAAGCCGGCATTCGTTAACCCTCTTCTGGCGCAAACTGCTGTTTGCTCTGGATGAATCATGGTCCTTTGGCGACGCCAGGCTCCGGGAGAGCAAAGCACCGTGTCAGGGCCATGATCCGGGGTGGCCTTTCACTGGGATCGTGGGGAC: 0.166 ratio
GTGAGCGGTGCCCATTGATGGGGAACAACACCAAACATAATTTAAAGATTTAATATACAAGTGTCTTGTTAGAAATAAAAACTTTCAGGGGGGTAATAAGGAAAAGAGATTGAATGCAAAGTAATCTAGCAATTTTGCTAAACAGTGACAATTACATCAACCTGACTTAAAGCAAAAGACTTAGATTGCTGTGTGTATATATATATACCTACAGATATATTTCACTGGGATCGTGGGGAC: 0.0217 ratio
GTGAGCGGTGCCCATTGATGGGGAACCAGCCTGCCCTTTTTCTGAAATATTAGTAATTTTCTTTTTCTTTTTCCTTTTTTTTTTTTTTTTTGGACAATTAAGGGAGACTTGTCCAACTATGTAAACACAGAAAGCACTCAAGCAACAATGCCCTCGTAATTAGCAGCGGGCAGGCCGGCGTCTGGGCTGGCCCGTCAGGCGCGGCGTCAGCTGAAAGGGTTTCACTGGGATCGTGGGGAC: 0.419 ratio

Sample 4 — technique: protein binding microarray; molecule type: double-stranded DNA, one strand shown; matrix: in vitro; concentration: not given; baseline: not given; direction: higher = stronger binding; quantity: E-score
Target: Histone acetyltransferase KAT6A, winged helix 2, GST fusion (KAT6A, Homo sapiens, UniProt Q92794, residues 85-181)
Setting: 8-mer, flanks averaged, mean of 2 arrays, mostly near background
Construct (chain): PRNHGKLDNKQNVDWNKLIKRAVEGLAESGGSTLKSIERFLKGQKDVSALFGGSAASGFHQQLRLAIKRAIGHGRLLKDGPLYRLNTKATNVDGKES
ATGACCTG: -0.0485
CAACACCG: 0.0717
AGGCTCTC: 0.0294
CCACACGG: 0.149
GATCCCGC: 0.0808
GTTTCACA: 0.0366
GTACATAC: -0.171
GGAAAATA: 0.0465
ATCCCTCC: 0.0927
AAAAACAA: 0.0542
GCTATTTA: -0.122
ACGATGTG: -0.172
ATCACCCA: -0.0952
CACTGAAA: 0.0473
GCTTGAAC: 0.152
GACTTGGA: -0.0773

Sample 5 — technique: universal PBM; molecule type: double-stranded DNA, one strand shown; matrix: in vitro; concentration: not given; direction: higher = stronger binding; quantity: E-score
Target: Sal-like protein 4, full length isoform B (SALL4, Homo sapiens, UniProt Q9UJQ4-2, residues 1-616)
Setting: 8-mer, flanks averaged, mean of replicates
AGGGCTGG: -0.23
CGTCTAAA: -0.0187
CTCCTTTC: -0.153
CAGATCCA: -0.0364
ACCGTACT: 0.0229
CCAAGACA: 0.0526
GGGACCAA: -0.27
CCATGACA: 0.0144
GGACATTA: 0.146
AGTTTAGC: -0.0284
AGGCCAGG: -0.25
CCGATGTA: -0.0765
GAGTAACC: -0.119
ATCCAAAA: 0.242
GGCTCCGA: -0.307
ATGCGCAG: -0.115
CCCCATAC: -0.0259
GGCATCGA: -0.085
CCCACAGG: -0.271
ATACGCAA: 0.159

Excerpt of the above (sample 4):
GGAAAATA: 0.0465
ATCCCTCC: 0.0927
AAAAACAA: 0.0542
GCTATTTA: -0.122
ACGATGTG: -0.172
ATCACCCA: -0.0952
CACTGAAA: 0.0473
GCTTGAAC: 0.152
GACTTGGA: -0.0773
